Published values of several laboratories.
Every numbered part comes from another study and shows a few of its results, in no order.
Sequence of UniProt O15303 (whole entry, looked up): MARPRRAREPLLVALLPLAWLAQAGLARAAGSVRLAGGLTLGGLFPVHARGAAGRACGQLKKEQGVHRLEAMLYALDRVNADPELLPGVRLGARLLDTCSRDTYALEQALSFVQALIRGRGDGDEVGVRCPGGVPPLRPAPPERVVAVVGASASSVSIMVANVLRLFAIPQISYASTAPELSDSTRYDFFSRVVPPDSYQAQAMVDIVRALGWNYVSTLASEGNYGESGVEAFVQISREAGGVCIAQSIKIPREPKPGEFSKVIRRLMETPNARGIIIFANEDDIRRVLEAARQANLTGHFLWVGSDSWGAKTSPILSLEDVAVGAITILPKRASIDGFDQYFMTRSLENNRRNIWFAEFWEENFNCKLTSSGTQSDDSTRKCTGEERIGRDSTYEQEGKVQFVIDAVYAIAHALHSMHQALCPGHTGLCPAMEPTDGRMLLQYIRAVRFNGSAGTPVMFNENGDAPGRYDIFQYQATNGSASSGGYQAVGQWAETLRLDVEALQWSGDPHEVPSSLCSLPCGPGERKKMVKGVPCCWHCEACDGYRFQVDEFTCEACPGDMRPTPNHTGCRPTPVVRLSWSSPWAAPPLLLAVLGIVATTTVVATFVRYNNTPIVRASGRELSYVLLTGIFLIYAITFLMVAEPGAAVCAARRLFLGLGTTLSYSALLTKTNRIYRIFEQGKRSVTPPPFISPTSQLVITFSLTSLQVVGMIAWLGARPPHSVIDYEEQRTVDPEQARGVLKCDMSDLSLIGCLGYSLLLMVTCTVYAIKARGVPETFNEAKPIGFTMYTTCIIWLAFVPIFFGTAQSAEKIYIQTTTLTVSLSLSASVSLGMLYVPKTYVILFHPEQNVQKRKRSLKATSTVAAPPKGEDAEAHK
Sequence of UniProt Q96PY6 (whole entry, looked up): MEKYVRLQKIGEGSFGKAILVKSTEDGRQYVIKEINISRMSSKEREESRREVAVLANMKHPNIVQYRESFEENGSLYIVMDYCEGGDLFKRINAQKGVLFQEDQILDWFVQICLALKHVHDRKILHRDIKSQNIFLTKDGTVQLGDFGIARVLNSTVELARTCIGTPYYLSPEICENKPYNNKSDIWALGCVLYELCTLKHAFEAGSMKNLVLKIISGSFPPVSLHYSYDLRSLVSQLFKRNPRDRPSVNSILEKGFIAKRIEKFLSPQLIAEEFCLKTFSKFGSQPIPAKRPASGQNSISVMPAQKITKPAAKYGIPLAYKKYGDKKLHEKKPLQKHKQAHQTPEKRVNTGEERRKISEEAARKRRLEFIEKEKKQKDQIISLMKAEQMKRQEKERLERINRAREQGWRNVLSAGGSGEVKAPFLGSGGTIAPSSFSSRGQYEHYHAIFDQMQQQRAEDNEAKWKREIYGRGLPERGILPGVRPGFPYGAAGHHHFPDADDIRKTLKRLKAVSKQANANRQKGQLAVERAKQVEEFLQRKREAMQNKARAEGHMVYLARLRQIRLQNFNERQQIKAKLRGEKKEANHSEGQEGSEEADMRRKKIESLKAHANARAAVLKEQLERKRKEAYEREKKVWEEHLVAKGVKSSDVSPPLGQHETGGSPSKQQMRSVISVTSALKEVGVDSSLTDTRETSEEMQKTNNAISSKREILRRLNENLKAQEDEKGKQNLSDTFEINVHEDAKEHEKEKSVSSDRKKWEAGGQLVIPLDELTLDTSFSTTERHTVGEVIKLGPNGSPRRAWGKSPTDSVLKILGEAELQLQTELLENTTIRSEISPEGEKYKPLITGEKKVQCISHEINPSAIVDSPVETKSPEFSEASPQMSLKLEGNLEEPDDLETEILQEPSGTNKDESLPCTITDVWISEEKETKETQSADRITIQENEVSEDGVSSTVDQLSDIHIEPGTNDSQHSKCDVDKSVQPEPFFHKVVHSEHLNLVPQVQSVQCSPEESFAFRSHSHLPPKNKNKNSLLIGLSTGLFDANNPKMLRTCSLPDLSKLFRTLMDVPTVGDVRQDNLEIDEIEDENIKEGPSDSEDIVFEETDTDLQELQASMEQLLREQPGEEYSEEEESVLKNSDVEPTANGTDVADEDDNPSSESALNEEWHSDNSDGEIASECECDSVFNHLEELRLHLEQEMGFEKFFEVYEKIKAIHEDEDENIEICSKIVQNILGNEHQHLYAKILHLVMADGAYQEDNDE
Sequence of UniProt O95838 (whole entry, looked up): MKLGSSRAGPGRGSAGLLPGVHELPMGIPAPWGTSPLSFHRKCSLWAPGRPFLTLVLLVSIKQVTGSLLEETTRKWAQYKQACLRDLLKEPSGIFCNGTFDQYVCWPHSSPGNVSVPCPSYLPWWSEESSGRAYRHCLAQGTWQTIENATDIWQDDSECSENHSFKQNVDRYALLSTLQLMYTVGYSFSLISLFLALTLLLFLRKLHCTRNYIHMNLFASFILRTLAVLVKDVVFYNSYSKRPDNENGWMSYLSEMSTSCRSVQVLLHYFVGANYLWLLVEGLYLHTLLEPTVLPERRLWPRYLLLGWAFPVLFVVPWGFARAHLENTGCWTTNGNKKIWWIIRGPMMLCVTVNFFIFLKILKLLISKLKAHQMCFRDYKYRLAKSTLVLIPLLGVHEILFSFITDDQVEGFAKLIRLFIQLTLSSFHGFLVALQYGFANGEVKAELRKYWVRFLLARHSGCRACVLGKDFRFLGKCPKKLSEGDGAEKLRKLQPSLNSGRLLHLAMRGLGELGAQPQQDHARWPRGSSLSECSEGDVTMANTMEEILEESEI
Sequence of UniProt O43603 (whole entry, looked up): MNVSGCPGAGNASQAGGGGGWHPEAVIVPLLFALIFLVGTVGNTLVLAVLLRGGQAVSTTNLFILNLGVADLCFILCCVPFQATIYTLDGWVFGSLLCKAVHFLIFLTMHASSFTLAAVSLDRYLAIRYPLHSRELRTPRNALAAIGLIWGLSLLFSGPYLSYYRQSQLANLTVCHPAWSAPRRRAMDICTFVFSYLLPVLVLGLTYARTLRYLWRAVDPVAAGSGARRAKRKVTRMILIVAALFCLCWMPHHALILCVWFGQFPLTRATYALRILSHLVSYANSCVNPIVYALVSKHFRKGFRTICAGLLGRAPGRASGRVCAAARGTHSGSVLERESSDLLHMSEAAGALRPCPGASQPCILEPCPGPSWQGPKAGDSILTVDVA
Sequence of UniProt P30291 (whole entry, looked up): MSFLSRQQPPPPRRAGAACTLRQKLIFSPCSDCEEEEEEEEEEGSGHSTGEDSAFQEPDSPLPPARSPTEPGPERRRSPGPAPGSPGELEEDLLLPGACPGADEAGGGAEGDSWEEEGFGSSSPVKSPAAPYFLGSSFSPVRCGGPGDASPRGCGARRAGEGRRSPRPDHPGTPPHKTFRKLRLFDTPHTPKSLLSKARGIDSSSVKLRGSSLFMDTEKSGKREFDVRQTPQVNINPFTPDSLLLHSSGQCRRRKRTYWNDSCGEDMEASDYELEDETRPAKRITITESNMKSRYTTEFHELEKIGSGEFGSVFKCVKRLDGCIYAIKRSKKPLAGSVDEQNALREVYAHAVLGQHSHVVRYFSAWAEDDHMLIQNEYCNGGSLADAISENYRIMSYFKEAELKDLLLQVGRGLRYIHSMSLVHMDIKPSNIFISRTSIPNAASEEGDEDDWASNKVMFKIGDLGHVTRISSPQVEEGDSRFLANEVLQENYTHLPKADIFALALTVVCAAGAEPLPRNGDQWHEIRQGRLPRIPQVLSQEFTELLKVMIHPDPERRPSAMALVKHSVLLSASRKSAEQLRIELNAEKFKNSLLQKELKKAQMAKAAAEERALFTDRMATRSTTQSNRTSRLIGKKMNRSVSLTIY
Sequence of UniProt P55085 (whole entry, looked up): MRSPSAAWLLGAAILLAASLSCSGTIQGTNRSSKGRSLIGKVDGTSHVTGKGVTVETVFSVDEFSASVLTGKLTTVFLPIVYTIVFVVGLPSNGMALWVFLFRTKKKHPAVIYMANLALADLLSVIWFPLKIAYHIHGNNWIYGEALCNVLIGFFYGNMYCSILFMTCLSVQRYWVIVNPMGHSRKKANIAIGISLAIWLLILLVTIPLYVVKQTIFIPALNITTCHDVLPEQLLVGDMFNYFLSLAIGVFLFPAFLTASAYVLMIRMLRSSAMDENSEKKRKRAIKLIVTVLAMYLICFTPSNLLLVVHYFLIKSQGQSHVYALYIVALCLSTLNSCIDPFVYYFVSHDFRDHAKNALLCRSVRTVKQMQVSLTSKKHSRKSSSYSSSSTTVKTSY
Sequence of UniProt P08913 (whole entry, looked up): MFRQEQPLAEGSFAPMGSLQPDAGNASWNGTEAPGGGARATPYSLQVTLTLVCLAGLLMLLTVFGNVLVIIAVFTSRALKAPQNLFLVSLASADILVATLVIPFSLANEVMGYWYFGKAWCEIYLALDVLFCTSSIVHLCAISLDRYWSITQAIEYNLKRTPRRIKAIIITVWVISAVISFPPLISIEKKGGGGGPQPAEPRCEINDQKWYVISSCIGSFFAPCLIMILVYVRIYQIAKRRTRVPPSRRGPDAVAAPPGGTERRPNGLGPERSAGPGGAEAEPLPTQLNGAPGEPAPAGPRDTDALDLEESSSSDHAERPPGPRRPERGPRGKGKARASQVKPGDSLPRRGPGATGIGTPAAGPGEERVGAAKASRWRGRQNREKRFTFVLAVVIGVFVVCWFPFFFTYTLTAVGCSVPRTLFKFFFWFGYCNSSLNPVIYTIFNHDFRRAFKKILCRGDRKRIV

Sample 1
SMILES: CCN(c1nc(N)c(C(=O)N=C(N)N)nc1Cl)C(C)C
Observed: β-arrestin recruitment
Mode: agonist
Technique: PRESTO-Tango
Tested at: 10 µM
Reference: untreated
Endpoint: fold over basal
HTR1E (Homo sapiens, UniProt P28566): 0.8
CMKLR2 (Homo sapiens, UniProt P46091): 0.77
Metabotropic glutamate receptor 6 (Homo sapiens, UniProt O15303): 0.8 fold
F2RL1 (Homo sapiens, UniProt P55085): 0.78
GALR2 (Homo sapiens, UniProt O43603): 0.43 fold
CHRM5 (Homo sapiens, UniProt P08912): 0.96
GLP2R (Homo sapiens, UniProt O95838): 0.45 fold
ADRA2A (Homo sapiens, UniProt P08913): 0.91

Sample 2
Target: Translocator protein (Tspo, Rattus norvegicus, UniProt P16257)
Sequence of UniProt P16257 (whole entry, looked up): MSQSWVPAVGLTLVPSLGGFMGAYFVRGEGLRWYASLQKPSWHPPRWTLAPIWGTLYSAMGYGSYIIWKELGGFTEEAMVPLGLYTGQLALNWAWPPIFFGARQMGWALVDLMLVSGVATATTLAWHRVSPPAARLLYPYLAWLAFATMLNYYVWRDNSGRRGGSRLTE
Observed: radioligand binding
Technique: radioligand displacement
Tested at: 10 µM
Endpoint: inhibition
CN(C)c1ncnc(-c2ccc3nc(Nc4cc(CN5CCN(C(=O)CC(F)(F)F)CC5)ccn4)[nH]c3c2)c1Cl: 13.9%
Cc1ccc2nc(CNCCCOc3ccccc3)cc(O)c2c1: 8.58%
CO[C@@H](C)c1c(Nc2ccc([C@@H](N(C)C(=O)C3CCS(=O)(=O)CC3)C(F)(F)F)cc2)cnc2cc(Cl)nn12: 5.14%
O=C(O)c1cc(-c2ccc(C3CCNCC3)cc2)c2ccc(-c3ccc(C(F)(F)F)cc3)cc2c1: -29.8%
O=C(Nc1ccc(-n2nc(-c3cccnc3)cc2C(F)(F)F)cn1)c1ccc(-c2ccccc2)c(F)c1: 15%

Sample 3
Target: Diamine acetyltransferase 1 (Homo sapiens, UniProt P21673)
Mode: inhibitor
Tested at: 10 µM
Reference: control
Endpoint: remaining activity
Target sequence (P21673 1-171): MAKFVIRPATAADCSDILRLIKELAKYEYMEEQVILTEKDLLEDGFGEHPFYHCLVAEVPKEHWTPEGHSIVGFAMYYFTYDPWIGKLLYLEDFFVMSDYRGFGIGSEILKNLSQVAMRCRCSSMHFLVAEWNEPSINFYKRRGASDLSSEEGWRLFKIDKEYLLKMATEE
CC1=CC=C(C(C)C)CC1: 96.5%
CC(C)=CCC/C(C)=C/CO: 86.7%
COc1cc(O)ccc1/C=C/C(=O)c1ccc(O)cc1: 96.1%
O=C1C[C@@H](c2ccc(O)c(O)c2)Oc2cc(O)cc(O)c21: 91.3%
CCCCCCCCCCCCCCCCCCCCCCCC(=O)O: 95.4%
OC[C@H]1O[C@@H](Oc2cc(O)cc(/C=C/c3ccc(O)cc3)c2)[C@H](O)[C@@H](O)[C@@H]1O: 92.8%

Sample 4
SMILES: COc1ccc(S(=O)(=O)N(CCO)c2ccccc2CN(C)CC=Cc2ccc(Cl)cc2)cc1
Observed: enzyme activity
Mode: inhibitor
Tested at: 0.5 µM
Reference: control
Endpoint: remaining activity
LCK (Homo sapiens, UniProt P06239): 95.5%
EPHA3 (Homo sapiens, UniProt P29320): 102%
CSNK1G3 (Homo sapiens, UniProt Q9Y6M4): 98.3%
ULK2 (Homo sapiens, UniProt Q8IYT8): 102%
NEK1 (Homo sapiens, UniProt Q96PY6): 104%
FRK (Homo sapiens, UniProt P42685): 106%
NEK6 (Homo sapiens, UniProt Q9HC98): 103%
WEE1 (Homo sapiens, UniProt P30291): 96%
GSK3B (Homo sapiens, UniProt P49841): 102%
ABL2 (Homo sapiens, UniProt P42684): 97.4%
MERTK (Homo sapiens, UniProt Q12866): 97%
TAOK2 (Homo sapiens, UniProt Q9UL54): 90.9%
ULK3 (Homo sapiens, UniProt Q6PHR2): 106%
MAPK3 (Homo sapiens, UniProt P27361): 95.1%

A few entries again (sample 1):
Metabotropic glutamate receptor 6 (Homo sapiens, UniProt O15303): 0.8 fold
CMKLR2 (Homo sapiens, UniProt P46091): 0.77
CHRM5 (Homo sapiens, UniProt P08912): 0.96
F2RL1 (Homo sapiens, UniProt P55085): 0.78
GALR2 (Homo sapiens, UniProt O43603): 0.43 fold
